{"data": "Published values of several laboratories", "SCTR": "Secretin receptor (SCTR, Homo sapiens, UniProt P47872)", "note": "Protocols differ between the studies behind these lines. ± gives the spread as reported.", "chain of UniProt P47872 (whole entry, looked up)": "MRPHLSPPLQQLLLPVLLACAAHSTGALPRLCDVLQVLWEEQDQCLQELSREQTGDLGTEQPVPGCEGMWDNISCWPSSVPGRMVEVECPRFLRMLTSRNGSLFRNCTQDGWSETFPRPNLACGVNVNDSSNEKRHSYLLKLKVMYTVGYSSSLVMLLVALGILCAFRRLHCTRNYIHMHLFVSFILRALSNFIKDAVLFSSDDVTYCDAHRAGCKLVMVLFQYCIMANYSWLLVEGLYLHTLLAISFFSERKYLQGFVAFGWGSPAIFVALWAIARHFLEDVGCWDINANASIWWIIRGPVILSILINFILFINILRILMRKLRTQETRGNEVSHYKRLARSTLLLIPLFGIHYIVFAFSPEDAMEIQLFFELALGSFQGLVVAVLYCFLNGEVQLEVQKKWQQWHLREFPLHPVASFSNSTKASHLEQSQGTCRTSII"}
{"SMILES": "CN(C)c1ccc(-c2nc3ccc(OCCCCCN4CCN5CCN(CC4)CC(=O)[O][Al]([18F])[O]C(=O)C5)cc3s2)cc1", "system": "ICR mouse, spleen", "conditions": "intravenous, 10 min", "endpoint": "tissue uptake", "result": "6.94 ± 1.83 %ID/g"}
{"SMILES": "COc1ccc(-c2cc(C(F)(F)F)nc(SCCC(=O)Nc3cc(F)ccc3F)n2)cc1", "tested on": "SCTR", "test": "increase of tracer binding, TR-FRET", "system": "HEK293 membranes", "conditions": "together with: Fluo-Sec 6 nM", "endpoint": "EC50", "result": "0.4 ± 0.2 µM"}
{"SMILES": "O=C([O-])CN1CCN(CC(=O)[O-])CCN(CC(=O)NCCc2ccc3c(c2)C2C=CCC2C(c2cc4c(cc2Br)OCO4)N3)CCN(CC(=O)[O-])CC1.[111In+3] (stereo not shown)", "system": "mouse, Hec50 endometrial tumour, adrenals", "conditions": "1 h post injection", "endpoint": "tissue uptake", "result": "5.02 ± 0.86 %ID/g"}
{"SMILES": "COc1ccc(-c2cc(C(F)(F)F)nc(NCc3ccc(F)cc3)n2)cc1OC", "tested on": "SCTR", "test": "cAMP, agonist", "endpoint": "EC50", "result": "28 µM"}
{"SMILES": "CCCC[C@@H]1NC(=O)[C@@H](NC(=O)[C@H](CCC(=O)O)NC(=O)CNC(=O)CN2CCN(CC(=O)O)CCN(CC(=O)O)CCN(CC(=O)O)CC2)CCCCNC(=O)C[C@@H](C(N)=O)NC(=O)[C@H](C(C)C)NC(=O)[C@@H]2CCCN2C(=O)[C@H](CCCNC(=N)N)NC(=O)CNC(=O)[C@H](Cc2c[nH]c3ccccc23)NC(=O)[C@H](CCCNC(=N)N)NC(=O)[C@@H](Cc2ccccc2)NC(=O)[C@H](Cc2c[nH]cn2)NC(=O)[C@H](CCC(=O)O)NC1=O [gallium-67 labelled]", "system": "C57 mice with B16/F1 melanoma, pancreas", "conditions": "intravenous, 0.037 MBq, 0.5 h", "endpoint": "tissue uptake", "result": "0.47 ± 0.07 %ID/g"}
{"SMILES": "CN1C(=O)[C@@H](Cc2ccc(O)c(I)c2)NC(=O)CNC(=O)[C@H](Cc2ccc3ccccc3c2)NC(=O)[C@H](CCCNC(=N)N)NC(=O)[C@H]1CCCNC(=O)c1ccc(CNC(=O)CN2CCN(CC(=O)O)CCN(CC(=O)O)CCN(CC(=O)O)CC2)cc1 [lutetium-177 labelled]", "test": "item: 177Lu radioactivity", "system": "female CB-17 SCID mice, Daudi xenograft, kidney", "conditions": "intravenous, 0.16 nmol per mouse, 1 h", "endpoint": "tissue uptake", "result": "3.4 ± 0.6 %ID/g"}
{"SMILES": "CCCC[C@H](NC(=O)CNC(=O)CNC(=O)CN1CCN(CC(=O)O)CCN(CC(=O)O)CCN(CC(=O)O)CC1)C(=O)N[C@H]1CC(=O)NCCCC[C@@H](C(N)=O)NC(=O)[C@H](Cc2c[nH]c3ccccc23)NC(=O)[C@H](CCCNC(=N)N)NC(=O)[C@@H](Cc2ccccc2)NC(=O)[C@H](Cc2c[nH]cn2)NC1=O [lead-203 labelled]", "system": "C57 mouse, spleen", "conditions": "intravenous, 0.056 MBq, 24 h", "endpoint": "tissue uptake", "result": "0.28 ± 0.11 %ID/g"}
{"SMILES": "O=C(O)C1CN(Cc2ccc(-c3noc(-c4ccc(OCC[18F])c(C(F)(F)F)c4)n3)cc2)C1", "system": "male Sprague-Dawley rat, heart", "conditions": "intravenous, 30 min", "endpoint": "tissue uptake", "result": "0.445 ± 0.03 %ID/g"}
{"SMILES": "OCc1cn(Cc2ccc(-c3noc(-c4ccc(OCC[18F])c(C(F)(F)F)c4)n3)cc2)nn1", "system": "female Lewis rat, spleen", "conditions": "intravenous, 60 min", "endpoint": "tissue uptake", "result": "1.27 ± 0.08 %ID/g"}
{"SMILES": "CC(C)[C@H](NC(=O)[C@@H]1CCCN1C(=O)[C@H](CCCNC(=N)N)NC(=O)[C@H](CS)NC(=O)[C@H](Cc1c[nH]c2ccccc12)NC(=O)[C@H](CCCNC(=N)N)NC(=O)[C@@H](Cc1ccccc1)NC(=O)[C@H](Cc1c[nH]cn1)NC(=O)[C@H](CCC(=O)O)NC(=O)[C@H](CS)NC(=O)[C@H](CS)NC(=O)[C@@H]1CC(=O)N[C@@H](CCCNC(=N)N)C(=O)NCC(=O)N[C@@H](CC(=O)O)C(=O)N[C@H](Cc2ccc(O)cc2)C(=O)N1)C(N)=O [technetium-99m labelled]", "system": "C57 mouse, female, B16/F1 melanoma, liver", "conditions": "intravenous, 0.037 MBq, 4 h", "endpoint": "tissue uptake", "result": "1.55 ± 0.25 %ID/g"}
{"note": "Some of these lines once more:"}
{"SMILES": "O=C(O)C1CN(Cc2ccc(-c3noc(-c4ccc(OCC[18F])c(C(F)(F)F)c4)n3)cc2)C1", "system": "male Sprague-Dawley rat, heart", "conditions": "intravenous, 30 min", "endpoint": "tissue uptake", "result": "0.445 ± 0.03 %ID/g"}
